Assay results gathered from unrelated publications.
A part holds a random share of what one study measured.

Sample 1 — method: universal PBM; molecule type: double-stranded DNA, one strand shown; matrix: in vitro; concentration: not given; reading: higher = stronger binding
Target: Sal-like protein 4, full length isoform B (SALL4, Homo sapiens, UniProt Q9UJQ4-2, residues 1-616)
Notes: 8-mer, flanks averaged, mean of replicates
Target sequence (chain): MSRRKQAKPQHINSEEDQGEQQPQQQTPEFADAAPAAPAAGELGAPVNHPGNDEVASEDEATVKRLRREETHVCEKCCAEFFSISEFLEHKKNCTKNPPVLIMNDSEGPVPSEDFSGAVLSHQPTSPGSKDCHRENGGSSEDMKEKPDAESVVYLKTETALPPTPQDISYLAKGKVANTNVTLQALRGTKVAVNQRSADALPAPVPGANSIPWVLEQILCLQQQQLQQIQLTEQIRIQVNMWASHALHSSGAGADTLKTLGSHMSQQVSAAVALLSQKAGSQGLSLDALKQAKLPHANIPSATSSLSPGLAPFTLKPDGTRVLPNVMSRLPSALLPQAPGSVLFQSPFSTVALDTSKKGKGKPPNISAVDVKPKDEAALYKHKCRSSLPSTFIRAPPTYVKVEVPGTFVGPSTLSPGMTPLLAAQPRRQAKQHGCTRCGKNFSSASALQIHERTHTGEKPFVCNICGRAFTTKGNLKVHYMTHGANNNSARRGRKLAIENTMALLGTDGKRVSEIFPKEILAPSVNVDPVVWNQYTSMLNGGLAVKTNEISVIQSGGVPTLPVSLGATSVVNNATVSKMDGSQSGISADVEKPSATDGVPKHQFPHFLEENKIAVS
Oligonucleotide | E-score
CTGACTGA | -0.22
CCAGGCCG | -0.307
ACGTCGAA | -0.0933
CATCAGTA | 0.183
GAACAGTA | 0.128
CATGTGGA | -0.0146
GTGCCAAA | -0.057
CACAATCA | 0.0856
AAATAATT | 0.41
CCACCATC | -0.234
CGTCTTCA | -0.0457
CATACCCG | -0.232
GACGAAAC | -0.144
ACTTTTGC | 0.095
GGTGGGTA | 0.0527
GATGCGAC | -0.124
ACGTAGTA | 0.0914
ATAAAAAT | 0.408
ACAGTTTA | 0.147
ATCTGTGA | 0.0694
TATTCGAA | 0.179
CCGGGCAG | -0.396
GAACGCAC | -0.127
CATGCCAG | -0.248
ATAGCCAT | 0.141

Sample 2 — method: RNA Bind-n-Seq; molecule type: RNA; matrix: in vitro; concentration: 365 nM; baseline: no-protein control; reading: higher = stronger binding
Target: RNA binding protein fox-1 homolog 2, RRM domain, GST-SBP tag (RBFOX2, Homo sapiens, UniProt O43251-10, residues 100-194)
Notes: natural RNA segment, single round, ends assumed
All sequences stand within: GGGAGUUCUACAGUCCGACGAUC … UGGAAUUCUCGGGUGCCAA
Residues (chain): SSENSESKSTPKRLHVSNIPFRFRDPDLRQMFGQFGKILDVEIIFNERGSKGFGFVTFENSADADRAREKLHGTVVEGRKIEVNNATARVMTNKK
Oligonucleotide | RBNS enrichment (R)
CAUAAGCCCGUGGUUUGUGUACUGGAACUAAAGCGGAACUCACUGAUUCAUAUUGGAUCCCCAGGUAUACCUUCUGCUGGUAGCAUAUGGCUGGAAAAGGCCGUUUGCCU | 0.308
CUAAGAGCACAAAUUUAGUUUGGGUGUUCCUCAUCACAUGUAUAUAUGGACUAUCCAUCGAACUUAACCUGUGUGGCUUCCAGCCCUCCCUUUACCAAAAGGGUCAAUGG | 0.249
GGACCCACGCUGUCUGCGCUGGCUCCACCCGGGAACCCGCCGCACGCUGUGUUCUAGGCCCGCCCACCCCAACCUUCUGGUGGGGAGAAAUAAACGGUUUAGAGACUAGG | 2.23
CCUCUGAAGUUGAUUGUCUUAUAUUCCCGCUAUGAGAUAUCUCAAAGAUUCUUAAUCAAGAGUUUCAGAGUUUAGAAACUCGGAUGUUGGGCAAGUUAGGAAAUAUUCCA | 0.473
UAUGUUGGGAAUGGUAAAAAGGUUUUCAAAUGGUUUAUUUUUCCUCUUUUAUAAAUAAGUUUUACAAAAUUUUCCUCUUUUGUUUAUUGACUAGAUUGUAUAUAAUUUUC | 1.55
UUUUGUUGUAAGGAGAAAACCAGCUCAGACUUUUGUCCCUGUAGGUGAUGGUAGUGGUCAGAAAUGGCUUUUGCUUUGGUAAUAAGUGAAUUUUAUUCCCCAAGAGUCUC | 0.403
UAUCUAUAUGUGUGUAUACAUAUAUAAUAUAUACACACAGAUACAAGUGUACACACACACACCACACACCACACACACCCCACUGGCAGUCUUUGUGGAUUAGGAUGGGG | 0.436
UUGCACCCGCUCUCUGUUGUACACUUUCAAGCAACACUUUUUCAGACUAAAGGCCAAACAAAAGCUAUCGUGCUCAUAGUGUCCUGCUUUACUCUCCUACCCUGGCCCCA | 0.446

Sample 3 — method: protein-binding microarray; molecule type: double-stranded DNA, one strand shown; matrix: in vitro; concentration: 2200 nM top; notes: 60-bp whole probe; added: salmon DNA 0.4 mg/ml; baseline: random background probes; reading: higher = stronger binding; all sequences stand within: GCCTAGCAC … GTCTTGATTCGCTTGACGCTGCTG
Target: Interferon regulatory factor 7, full length, phosphomimetic (IRF7, Homo sapiens, UniProt Q92985, residues 1-503, S471D/S472D/S475D/S476D/S477D/S483D/S484D/S487D)
Chain of UniProt Q92985 (whole entry, unmodified, looked up): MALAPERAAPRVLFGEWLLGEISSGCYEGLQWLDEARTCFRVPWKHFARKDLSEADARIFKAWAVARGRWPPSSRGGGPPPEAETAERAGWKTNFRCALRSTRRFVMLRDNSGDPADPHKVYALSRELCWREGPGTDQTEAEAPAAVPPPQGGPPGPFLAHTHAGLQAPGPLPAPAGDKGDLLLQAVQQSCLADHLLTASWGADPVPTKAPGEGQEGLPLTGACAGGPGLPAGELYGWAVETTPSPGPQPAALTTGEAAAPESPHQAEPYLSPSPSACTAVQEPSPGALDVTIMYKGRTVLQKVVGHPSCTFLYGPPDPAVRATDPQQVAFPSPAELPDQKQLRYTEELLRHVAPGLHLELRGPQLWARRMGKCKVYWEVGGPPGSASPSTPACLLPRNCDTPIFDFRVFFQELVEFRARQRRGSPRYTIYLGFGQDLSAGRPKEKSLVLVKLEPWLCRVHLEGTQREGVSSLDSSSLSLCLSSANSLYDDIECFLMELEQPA
Oligonucleotide | fitted relative affinity [z-score]
GACGGGTTCGGTTTCGGGACGTGCTAG | 4.92
TTAGTTATCCTTTTCCTTTAGTGCTAG | 2.7
TCACTTATCCAATCAGAACTGTGCTAG | 1.24
GGCCAAACAGTATTAAACTCGTGCTAG | -0.146
TCAGATATCAGACTGGATTAGTGCTAG | 0.011
TCATTCATGAAGTTTTAAACTGTGCTA | -0.194
TTCCTTGCTATGTTGCTCAGGTGCTAG | 2.09
TTAGATTTCGGGACTGGATTCGTGCTA | 1.14
ACAGATGAGGAACCAAGGCCGTGCTAG | -0.946
TTAGGTTTCGTCACTGGGTTAGTGCTA | 2.05
TTTGGTTTCGGTATCGGTTAGTGCTAG | 9.23
TCAACTTTCCAATTGTCACTGTGCTAG | 4.68
GACGATATCAGTCTCCAGACGTGCTAG | 0.304
TTAGGCCTGGACACTGGGTTAGTGCTA | -0.798
GACGGTTTCGCTCTCGGGACGTGCTAG | 5.21
TATGTTCCCTATTTAAGGCAGTGCTAG | 1.71
TCAGTAATCGAAATCTTACTGTGCTAG | 0.339
GACGATATCATTTTCGAGACGTGCTAG | 3.43

Sample 4 — method: protein binding microarray; molecule type: double-stranded DNA, one strand shown; matrix: in vitro; concentration: not given; baseline: not given; reading: higher = stronger binding
Target: Histone acetyltransferase KAT6A, winged helix 1, GST fusion (KAT6A, Homo sapiens, UniProt Q92794, residues 1-85)
Notes: 8-mer, flanks averaged, mean of 2 arrays, mostly near background
Construct (chain): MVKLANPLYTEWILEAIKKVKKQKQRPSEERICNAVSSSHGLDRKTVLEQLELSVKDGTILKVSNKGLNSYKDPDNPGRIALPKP
Oligonucleotide | E-score
CTGCTGCC | 0.048
ATACTGCG | 0.186
GCTGTCTA | 0.0354
CGCGGCAC | 0.434
ACATGGTA | 0.0165
ACGTCGAC | -0.13
CATTTATA | -0.0882
AGGATCTG | -0.297
CGCTGTGC | 0.256
CCTCGCGC | 0.334
CGCTTCAA | 0.245
AATTTTAC | -0.0697
GGCTGTCA | -0.0345
ACTGAACA | -0.137
AAAGCTAT | 0.0092
TACTCCAA | -0.0254
ACGTATCT | -0.113
ATATTAAT | 0.0233
CGTCTTCC | 0.153
GCTTCTTA | -0.0958
GAGTGGTA | -0.103
AACTAATT | -0.0781
ACAAGCAA | -0.12
CATAAGCG | 0.121
GTTTATAA | 0.0521

Sample 5 — method: protein-binding microarray; molecule type: double-stranded DNA, one strand shown; matrix: in vitro; concentration: not given; reading: higher = stronger binding
Target: Protein C-ets-1 (ETS1, Homo sapiens, UniProt P14921, residues 1-441, K379A, full length assumed)
Notes: k-mer, scored over probes, only values ≥0.25
Construct (chain): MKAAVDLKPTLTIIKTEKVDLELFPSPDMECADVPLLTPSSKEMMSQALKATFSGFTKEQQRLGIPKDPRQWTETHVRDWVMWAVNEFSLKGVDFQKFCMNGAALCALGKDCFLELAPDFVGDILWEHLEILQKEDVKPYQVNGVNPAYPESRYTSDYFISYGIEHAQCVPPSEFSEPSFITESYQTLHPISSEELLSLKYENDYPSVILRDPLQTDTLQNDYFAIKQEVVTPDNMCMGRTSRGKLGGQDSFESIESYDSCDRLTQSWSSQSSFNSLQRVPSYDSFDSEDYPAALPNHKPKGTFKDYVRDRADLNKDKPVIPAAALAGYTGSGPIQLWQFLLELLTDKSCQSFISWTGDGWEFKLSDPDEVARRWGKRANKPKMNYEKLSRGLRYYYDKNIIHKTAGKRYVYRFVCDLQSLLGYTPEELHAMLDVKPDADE
Oligonucleotide | E-score
ACTTAGAT | 0.255
TGTATCAA | 0.276
CCCGCACC | 0.301
CACTCCGG | 0.29
ACGTCCGG | 0.301
ATGTGTTA | 0.255
CACACACC | 0.274
ATTATACC | 0.302
CCGGAAAG | 0.306
ACCGACAT | 0.419
CACAGGTA | 0.256
CCCGACGG | 0.334
GATATTAC | 0.268
ACCGGGAA | 0.42
ACCGGGTG | 0.386
GAACTTCC | 0.276
ATGCACCG | 0.338
CCGGGAAC | 0.338
CAATACAC | 0.271
CGGAACAC | 0.35
GTTTTCAA | 0.25
CCCGTCGG | 0.286
ACACCGGG | 0.442
ATATGAAC | 0.263
GGTCCTTA | 0.262

A few entries again (sample 1):
Oligonucleotide | E-score
CATGTGGA | -0.0146
CCAGGCCG | -0.307
GACGAAAC | -0.144
GGTGGGTA | 0.0527
ACAGTTTA | 0.147
CATCAGTA | 0.183
GAACAGTA | 0.128
GAACGCAC | -0.127
CACAATCA | 0.0856
CGTCTTCA | -0.0457
AAATAATT | 0.41
ATAGCCAT | 0.141
CTGACTGA | -0.22
ATAAAAAT | 0.408
GATGCGAC | -0.124
